# Measured values from different studies.
# A part holds a random share of what one study measured.

# Set 1
# Target: Prothrombin, mature alpha-thrombin (F2, Homo sapiens, UniProt P00734)
# Method: aptamer microarray, sandwich
# Form: DNA with 2'F-ANA
# Sample: in vitro
# Concentration: 200 nM
# Notes: whole 15-mer aptamer, many near background
# Added: Cy3 exosite-II aptamer, 400 nM
# Reading: higher = stronger binding
# Sequence: GGTTGGTGTGGTTGG
Modification,mean fluorescence intensity
2'F-ANA at 2 3 5 6 7 8 9 10 11 13 14,198 a.u.
2'F-ANA at 4 5 6 7 8 10 13 15,55.3 a.u.
2'F-ANA at 3 5 10 11 13 14 15,51.1 a.u.
2'F-ANA at 1 2 5 6 7 8 13,55.1 a.u.
2'F-ANA at 1 2 3 7 10 11 13 14,119 a.u.
2'F-ANA at 1 3 4 6 8 13 15,156 a.u.
2'F-ANA at 1 2 5 10 11 14 15,49.3 a.u.
2'F-ANA at 5 6 7 9 10 15,50.6 a.u.
2'F-ANA at 1 4 5 7 10 12 14 15,49 a.u.
2'F-ANA at 2 4 5 9 11 12 14,47 a.u.
2'F-ANA at 2 3 5 6 7 8 9 10 11 12,62 a.u.
2'F-ANA at 2 6 8 10 11 13 14 15,74.1 a.u.
2'F-ANA at 1 2 5 6 8 9 12,116 a.u.
2'F-ANA at 5 10 11 12 14,43.5 a.u.
2'F-ANA at 1 2 6 7 8 9 12 13 14,69.3 a.u.
2'F-ANA at 3 7 8 9 11 12 13 14,685 a.u.
2'F-ANA at 4 5 7 8 12,194 a.u.
2'F-ANA at 4 7 8 9 10,93.2 a.u.
2'F-ANA at 3 4 6 7 8 10 11 14 15,292 a.u.
2'F-ANA at 1 2 6 9 12 13 14 15,62.5 a.u.

# Set 2
# Target: Sal-like protein 4, full length isoform A (SALL4, Homo sapiens, UniProt Q9UJQ4, residues 1-1053)
# Sequence of UniProt Q9UJQ4 (whole entry, looked up): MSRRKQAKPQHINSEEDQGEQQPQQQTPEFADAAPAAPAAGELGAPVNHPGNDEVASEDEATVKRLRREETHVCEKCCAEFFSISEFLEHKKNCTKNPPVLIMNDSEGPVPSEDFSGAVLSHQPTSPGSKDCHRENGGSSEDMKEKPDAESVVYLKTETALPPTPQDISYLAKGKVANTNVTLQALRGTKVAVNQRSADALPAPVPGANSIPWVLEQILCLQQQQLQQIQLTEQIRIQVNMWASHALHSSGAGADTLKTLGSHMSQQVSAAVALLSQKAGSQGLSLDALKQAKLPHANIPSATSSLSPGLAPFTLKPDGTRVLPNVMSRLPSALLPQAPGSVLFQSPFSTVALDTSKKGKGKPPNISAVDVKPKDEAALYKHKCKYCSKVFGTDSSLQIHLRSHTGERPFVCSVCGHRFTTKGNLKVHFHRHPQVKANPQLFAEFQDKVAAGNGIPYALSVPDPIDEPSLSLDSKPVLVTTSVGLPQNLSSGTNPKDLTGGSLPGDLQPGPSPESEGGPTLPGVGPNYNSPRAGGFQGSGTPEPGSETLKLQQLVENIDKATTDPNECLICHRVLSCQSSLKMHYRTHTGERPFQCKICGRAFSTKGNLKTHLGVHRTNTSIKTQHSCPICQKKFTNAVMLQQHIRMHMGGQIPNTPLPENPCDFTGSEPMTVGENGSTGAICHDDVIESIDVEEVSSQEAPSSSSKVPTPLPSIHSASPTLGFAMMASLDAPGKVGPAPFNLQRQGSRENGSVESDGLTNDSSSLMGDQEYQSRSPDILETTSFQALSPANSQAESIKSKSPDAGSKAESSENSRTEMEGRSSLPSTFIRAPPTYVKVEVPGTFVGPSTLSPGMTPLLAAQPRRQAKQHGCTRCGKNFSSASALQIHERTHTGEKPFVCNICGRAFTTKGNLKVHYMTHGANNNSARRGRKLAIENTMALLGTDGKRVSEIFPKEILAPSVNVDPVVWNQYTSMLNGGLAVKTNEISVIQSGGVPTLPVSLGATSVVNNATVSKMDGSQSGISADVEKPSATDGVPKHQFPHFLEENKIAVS
# Method: universal PBM
# Form: double-stranded DNA, one strand shown
# Sample: in vitro
# Concentration: 600 nM
# Notes: 8-mer, flanks averaged, mean of replicates
# Reading: higher = stronger binding
Sequence,E-score
ACCCTGCC,-0.288
CACATGCC,-0.11
GATTCCGC,-0.134
CAGCCATA,-0.0138
CCAGTTCG,-0.122
ATCAGGCC,-0.0607
GCATCGAA,0.0288
ATCGCCTC,0.0495
AGCATCAG,-0.0437
GCCTGCAC,-0.283
GTTGACGA,-0.0813
CGACTAAA,0.062
CGACACGC,-0.202
CTACTCTA,0.114
CCCGTGAA,-0.0354
ATCATCAA,0.233
AGGAGAGC,-0.297
ACAGCGCC,-0.264
GGTTTCTA,-0.0249
CTCCTCAA,-0.116
GTGGCTGA,-0.199
CAATGGAG,0.0147
CCGTTCTC,-0.0513
CACTACGC,-0.225
ATGCTAAC,0.106

# Set 3
# Target: Ras GTPase-activating protein-binding protein 1, RRM domain (G3BP1, Homo sapiens, UniProt Q13283)
# Sequence of UniProt Q13283 (whole entry, looked up): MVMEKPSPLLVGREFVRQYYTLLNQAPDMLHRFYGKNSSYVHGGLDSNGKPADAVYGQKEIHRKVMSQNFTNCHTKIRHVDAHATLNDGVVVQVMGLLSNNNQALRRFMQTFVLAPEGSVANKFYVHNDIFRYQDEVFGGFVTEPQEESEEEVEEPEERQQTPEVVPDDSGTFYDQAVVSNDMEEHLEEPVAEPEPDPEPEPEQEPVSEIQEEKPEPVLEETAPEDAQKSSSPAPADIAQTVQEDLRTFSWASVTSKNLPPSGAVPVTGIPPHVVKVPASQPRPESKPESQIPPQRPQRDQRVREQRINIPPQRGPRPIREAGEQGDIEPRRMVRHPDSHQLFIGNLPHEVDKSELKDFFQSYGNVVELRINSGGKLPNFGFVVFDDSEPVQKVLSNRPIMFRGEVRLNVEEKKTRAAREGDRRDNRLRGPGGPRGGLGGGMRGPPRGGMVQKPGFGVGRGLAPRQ
# Method: RNA Bind-n-Seq
# Form: RNA
# Sample: in vitro
# Concentration: 1 µM
# Notes: whole 134-nt RNA, ends assumed
# Added: 150 mM KCl
# Relative to: input library
# Reading: higher = stronger binding
Sequence,log2 enrichment
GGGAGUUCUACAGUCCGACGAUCAGUCCUGUGCUACACAUCGUAUGUACCGAAUCGGAAAAAGGUUUUUUUGGUUUUUGGAAAGUAUUAUGUUACGCCGUUCGGAUCUGCACUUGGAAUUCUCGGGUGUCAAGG,-0.487
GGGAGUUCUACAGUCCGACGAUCACCAUGCAGGUGGGCAUCUUUGGGAAGUGGGGCAAGGAGGGGAUAGGGAGGGGGGUAACACUUUGGGAACAGGUGGUCCCAGGUCGUUUCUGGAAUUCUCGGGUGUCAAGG,-0.34
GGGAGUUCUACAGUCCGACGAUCCAAGUCCUGUGCUACACAUCGUAUGUACCGAAUCGGGAGGGUGGGAAAAAAAGGGAAAGUAUUAUGUUACGCCGUUCGGAUCUGCACUUCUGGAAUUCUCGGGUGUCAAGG,0.539
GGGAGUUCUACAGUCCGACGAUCGCAGGAAGUAAAAACAAAUGGAAAUGCUUCGGAGAGUGGCAGGGGUGGGGGUUGCUAAGGAAAGGGUGGGAUGGGAGUGGGUAAAGAGUUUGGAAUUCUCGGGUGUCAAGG,0.822
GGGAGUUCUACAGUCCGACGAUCCCUGUGCUACACAUCGUAUGUACCGAAUCGGGAAAAAAGGGGAAAAAAGGGAAAAAAGGGAAAGUAUUAUGUUACGCCGUUCGGAUCUGCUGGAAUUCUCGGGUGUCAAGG,-0.0351
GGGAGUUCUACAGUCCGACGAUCCCUCAAGUCCUGUGCUACACAUCGUAUGUACCGAAUCGGGGCGGGCGGCGGGAAAGUAUUAUGUUACGCCGUUCGGAUCUGCACUUCCAGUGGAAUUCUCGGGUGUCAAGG,-0.268
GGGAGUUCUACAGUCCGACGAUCAGUCCUGUGCUACACAUCGUAUGUACCGAAUCGGGAAAAAGGGAAAAAGGGUUUGGGAAAGUAUUAUGUUACGCCGUUCGGAUCUGCACUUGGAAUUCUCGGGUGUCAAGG,0.201
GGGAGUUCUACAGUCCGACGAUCCCUGUGCUACACAUCGUAUGUACCGAAUCGGGGAAAAAAAGGGGUUUGGGGAAAAAGGGGAAAGUAUUAUGUUACGCCGUUCGGAUCUGCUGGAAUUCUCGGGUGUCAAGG,0.729
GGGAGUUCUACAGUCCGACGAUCGUCCUGUGCUACACAUCGUAUGUACCGAAUCGGGGUUUGGGGUUUUUUUGGGGUGGGGAAAGUAUUAUGUUACGCCGUUCGGAUCUGCACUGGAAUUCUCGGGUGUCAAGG,0.839
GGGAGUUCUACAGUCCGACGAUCACCAUGCAGGUGGGCAUCUUCGGGAAGUGGGGCAAGGGGGGGAUAGGGAGGGGGGUAACACUUUGGGAACAGGUGGUCCCAGGUCGUUUCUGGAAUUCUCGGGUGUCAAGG,-0.43
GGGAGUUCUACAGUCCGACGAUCAGUCCUGUGCUACACAUCGUAUGUACCGAAUCAAAUUUAAACCCCCAAAUUUUUAAAAAAGUAUUAUGUUACGCCGUUCGGAUCUGCACUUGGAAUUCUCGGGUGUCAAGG,-0.105
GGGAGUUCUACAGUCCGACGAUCGUCCUGUGCUACACAUCGUAUGUACCGAAUCGGGGAAAAAGGAAAAAGGGGAAAAAGGAAAGUAUUAUGUUACGCCGUUCGGAUCUGCACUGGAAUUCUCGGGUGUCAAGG,-0.0922
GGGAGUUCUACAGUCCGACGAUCCUCAAGUCCUGUGCUACACAUCGUAUGUACCGAAUCGGGCGGGGCGGGGCGGGAAAGUAUUAUGUUACGCCGUUCGGAUCUGCACUUCCAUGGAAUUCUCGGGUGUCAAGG,0.957
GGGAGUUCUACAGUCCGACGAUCUAACUUUAGAGGAGGAUCUGAUGGAUAUGGCAGUGGACGUGGAUUUGGGGAUGGCUAUAAUUGGUAUGGAGGAGGACCUGGAGGUGGCAAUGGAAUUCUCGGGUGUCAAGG,-0.321

# Set 4
# Target: Histone acetyltransferase KAT6A, winged helix 2, GST fusion (KAT6A, Homo sapiens, UniProt Q92794, residues 85-181)
# Method: protein binding microarray
# Form: double-stranded DNA, one strand shown
# Sample: in vitro
# Concentration: not given
# Notes: 8-mer, flanks averaged, mean of 2 arrays, mostly near background
# Relative to: not given
# Reading: higher = stronger binding
# Construct (chain): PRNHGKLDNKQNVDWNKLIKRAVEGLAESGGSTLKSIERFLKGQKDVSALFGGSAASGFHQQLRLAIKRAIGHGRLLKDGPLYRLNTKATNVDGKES
Sequence,E-score
GAAACGCC,0.0573
CTCAGGGC,0.128
ACCGTCTC,0.0335
ACAATACT,-0.0338
AGATACGG,-0.0869
CGCATTAC,-0.0063
ACACATTA,-0.241
ACATCGTC,-0.164
AGCCAATC,-0.035
GGTCGAAA,-0.128
CCGTGCTC,0.117
AATGAGAC,-0.259
CCCGTGAA,-0.113
ACCTAGCG,-0.0146
CCTTAGCG,0.0149
CCGGTCCG,0.0194
GTGCCGAA,0.0518
GGTTGTAA,-0.0921
CAACCCGG,0.00147
GCTAGCAC,-0.0613
AGTGGTGC,-0.0769
CGTGAAAA,-0.0728
AACATCTG,-0.0769
AAGGCGTG,0.0309
CCATTGCA,-0.00979

# Set 5
# Target: Centromere-binding protein 1, full length, His-tagged (CBF1, Saccharomyces cerevisiae, UniProt P17106, residues 1-351)
# Sequence of UniProt P17106 (whole entry, looked up): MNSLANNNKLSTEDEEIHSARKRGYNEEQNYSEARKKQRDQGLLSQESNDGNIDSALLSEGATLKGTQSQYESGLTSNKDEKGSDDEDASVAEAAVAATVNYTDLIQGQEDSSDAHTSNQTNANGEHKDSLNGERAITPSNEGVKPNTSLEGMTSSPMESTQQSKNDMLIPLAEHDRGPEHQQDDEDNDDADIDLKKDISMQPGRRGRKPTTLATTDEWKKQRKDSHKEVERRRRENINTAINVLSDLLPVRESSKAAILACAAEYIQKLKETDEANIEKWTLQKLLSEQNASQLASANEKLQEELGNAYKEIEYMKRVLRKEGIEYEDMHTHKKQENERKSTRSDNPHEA
# Method: competition protein-binding microarray
# Form: double-stranded DNA, one strand shown
# Sample: in vitro
# Concentration: 2 µM
# Notes: whole 60-bp probe, lowest competitor level
# Added: Pho4 competitor, 0.05 µM
# Reading: higher = stronger binding
Sequence,fluorescence intensity
AGCCAGAAAATATACCATGTGTGAAAATAGCGATAAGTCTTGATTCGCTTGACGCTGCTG,113 a.u.
CTTTCCCGATCTTGGCACGTGGGTGTAGCACATTTGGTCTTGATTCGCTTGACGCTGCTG,1250 a.u.
CAAACGGCATTCCGTCACGTACGATAACTTGATCCTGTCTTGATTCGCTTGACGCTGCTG,106 a.u.
AACGACGAATCCTGTCACATGTCTTGCTTGGTCGCAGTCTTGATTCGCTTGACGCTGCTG,1200 a.u.
TTTGTTCCTTGGAACCACATGATTTACTCAACAAATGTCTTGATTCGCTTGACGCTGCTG,282 a.u.
GTCTTGTCTCATTGACACGTGGGTGTCCCCACTTCAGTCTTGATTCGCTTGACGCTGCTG,938 a.u.
CTAACGAAGGTTTTGCACGTGTTTTACAAGCCAAGTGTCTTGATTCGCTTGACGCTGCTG,2160 a.u.
TCCCAAGACCATACCCACGATGAAATTAAAGACACTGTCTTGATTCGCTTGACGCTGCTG,89.5 a.u.
TCGCGCACTACTTTTTTCGTGGGTAACTTAGGTGAAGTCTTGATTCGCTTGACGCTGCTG,81.5 a.u.
CCTGCAGCTGGCTCATTCGTGCTTTACTCTCTTTCCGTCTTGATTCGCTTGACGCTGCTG,76 a.u.
GTAGTTCAAATCACCAGCGTGCTAACAATGTTCAAGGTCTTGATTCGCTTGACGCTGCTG,90.7 a.u.
CTAACGAAGGTTTGTCACATCACTTACAAGCCAAGTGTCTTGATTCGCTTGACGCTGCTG,84 a.u.
GAAGGTGGTCCAACACACGTGATGGACCTAAACTCGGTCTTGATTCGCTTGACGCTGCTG,2830 a.u.
CATACCCAACCTTGCAAAGTGGGTGAAGATATTTGTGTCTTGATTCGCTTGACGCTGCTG,64.5 a.u.
CTTTCCCGATCTTGGAGGGTGGGTGTAGCACATTTGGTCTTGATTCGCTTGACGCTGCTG,69 a.u.
CGCCGGAAGCGGTGCCTCGTGGCTTGGGATCTCTCCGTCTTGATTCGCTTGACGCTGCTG,74.9 a.u.
TGGAGTTGTAAACGACATGTGAACCCTTAACACCAAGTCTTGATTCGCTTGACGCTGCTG,148 a.u.
CGGGGTTAAGTTTGCCGAGTGGGTGGCTTGCAGCAGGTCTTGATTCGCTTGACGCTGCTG,76.9 a.u.
AAAGCGGTAATTTGGGCGGTGGGTGCAGATATCTATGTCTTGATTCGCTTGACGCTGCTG,71.9 a.u.
AAATTACTAAGTTTCCACGTGTTTTACCCCGTATGAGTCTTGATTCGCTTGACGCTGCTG,771 a.u.
AAATTACTAAGTTGTGAAGTGGGTGACGCCGTATGAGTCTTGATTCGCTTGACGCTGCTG,71.2 a.u.
TTTATCGGTGCCGGCCACGTGGGTACCTCTTGCGAAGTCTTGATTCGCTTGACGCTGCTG,886 a.u.
TGCGCAACAACTTTTCACGTGCCGTTATGTCTAGAAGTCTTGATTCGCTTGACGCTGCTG,1320 a.u.
ATTCTTGGTACTTTAGTCGTGATTGTTTGACATGCCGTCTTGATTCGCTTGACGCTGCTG,103 a.u.
AAATTACTAAGTTTTCACGTGCAATACCCCGTATGAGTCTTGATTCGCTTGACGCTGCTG,1090 a.u.

# For quick reference, copied from above (set 1):
Modification,mean fluorescence intensity
2'F-ANA at 1 2 5 10 11 14 15,49.3 a.u.
2'F-ANA at 4 7 8 9 10,93.2 a.u.
2'F-ANA at 1 2 5 6 8 9 12,116 a.u.
2'F-ANA at 3 7 8 9 11 12 13 14,685 a.u.
2'F-ANA at 1 2 3 7 10 11 13 14,119 a.u.
2'F-ANA at 5 10 11 12 14,43.5 a.u.
2'F-ANA at 1 4 5 7 10 12 14 15,49 a.u.
2'F-ANA at 5 6 7 9 10 15,50.6 a.u.
2'F-ANA at 1 3 4 6 8 13 15,156 a.u.
2'F-ANA at 4 5 6 7 8 10 13 15,55.3 a.u.
2'F-ANA at 2 6 8 10 11 13 14 15,74.1 a.u.
2'F-ANA at 1 2 6 9 12 13 14 15,62.5 a.u.
